Assay results of several laboratories.
Compare with care: the assays were run in different laboratories. Several values in a cell are separate wells, animals, samples, runs or records. ± gives the spread as reported.
Chain of UniProt O88693 (whole entry, looked up): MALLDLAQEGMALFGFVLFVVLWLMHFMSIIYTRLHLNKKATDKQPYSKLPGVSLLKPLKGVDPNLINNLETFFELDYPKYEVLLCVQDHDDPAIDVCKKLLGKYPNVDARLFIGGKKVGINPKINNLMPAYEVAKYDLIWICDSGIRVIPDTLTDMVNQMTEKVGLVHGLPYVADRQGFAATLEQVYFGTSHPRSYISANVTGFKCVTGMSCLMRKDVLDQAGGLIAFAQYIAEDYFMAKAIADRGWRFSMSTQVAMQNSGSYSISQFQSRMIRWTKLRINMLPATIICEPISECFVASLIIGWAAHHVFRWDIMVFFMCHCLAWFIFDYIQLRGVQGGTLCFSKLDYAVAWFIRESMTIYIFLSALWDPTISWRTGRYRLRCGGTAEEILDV

SMILES	tested on	assay	test system	conditions	how to read	endpoint	value
CCCC[C@H](NC(=O)COCCOCCNC(=O)CN1CCN(CC(=O)O)CCN(CC(=O)O)CC1)C(=O)N[C@H]1CC(=O)NCCCC[C@@H](C(N)=O)NC(=O)[C@H](Cc2c[nH]c3ccccc23)NC(=O)[C@H](CCCNC(=N)N)NC(=O)[C@@H](Cc2ccccc2)NC(=O)[C@H](Cc2c[nH]cn2)NC1=O [technetium-99m labelled]	–	–	C57 mouse, stomach	intravenous, 0.037 MBq, 2 h	–	tissue uptake	0.52 ± 0.07 %ID/g
C=CC(=O)N1[C@H](c2ccc3c(c2)OCO3)c2[nH]c3ccccc3c2C[C@@H]1C(=O)NC1CC1	rat DRG neurons	–	–	10 µM, 48 h, with: vincristine 40 nM	–	mean neuron degeneration	10.2%
CC12CCCC(NC(=O)c3ccc(Br)cc3)(C1)C1CC(C)(C)C1CC2 (stereo not drawn)	HT-29	cell growth or viability, CCK-8	–	10 µM	–	inhibition	< 50%
O=C(COCC(F)F)Nc1ccc([C@H]2[C@@H](F)[C@@H](F)C[C@@H](F)[C@H]2F)cc1	–	liver microsome stability	human liver microsomes	1 µM, without NADPH	–	hepatic clearance	18 mL/min/kg
CC12CCCC(NS(=O)(=O)c3cccc(F)c3)(C1)C1CC(C)(C)C1CC2 (stereo not drawn)	HT-29	cell growth or viability, CCK-8	–	10 µM	–	inhibition	< 50%
Cc1cc(Cl)cc(-c2ccnc3cc(CN4C(=O)C5C(C4=O)C5(C)C)sc23)c1C[C@@H]1CNCCO1 (stereo partly drawn)	CHP-212 resistant cells (pooled)	annexin V-PI flow cytometry	–	0.3 µM, 48 h	–	apoptotic cells (early plus late)	6.37% and 13.6% and 13.4%
COC1CCN(C(=O)/C=C/c2nn(Cc3cccc(C(F)(F)F)c3)c3nc(N(C)C)ncc23)CC1	OE33	cell growth or viability, resazurin	–	5 days	–	EC50	> 30 µM
COc1ccc(CNC[C@@](O)(COCc2ccc(OC)cc2)[C@@H]2CC[C@@H](C)C[C@H]2OCc2ccc(OC)cc2)cc1	A2780	cell growth or viability, MTT	–	30 µM, 72 h	–	inhibition	101%
CCN(C(=O)c1cc(F)ccc1Oc1nncnc1N1CCC2(C1)CN([C@H](CCCN(C)CCOC)C(C)C)C2)C(C)C	MINO	cell growth or viability	–	72 h	–	GI50	> 10 µM
OC[C@@H]1[C@@H](O)[C@H](O)[C@@H](O)CN1CCCCCOCc1ccc(-c2ccccc2)c(C(F)(F)F)c1	Ceramide glucosyltransferase (Ugcg, Mus musculus, UniProt O88693)	enzyme activity, inhibitor, fluorescence	–	–	–	IC50	0.025 µM
O=C(C[Se]C(=O)c1cccnc1Nc1cccc(C(F)(F)F)c1)Nc1cccc(C(F)(F)F)c1	NCI60 NSCLC subpanel mean	cell growth	–	–	–	TGI	3.32 µM
CN1CCC(c2ccc(-c3ccc([C@H]4[C@@H](F)[C@@H](F)C[C@@H](F)[C@H]4F)cc3)cn2)CC1	–	liver microsome stability	human liver microsomes	1 µM, without NADPH	–	hepatic clearance	9.2 mL/min/kg
O=S(=O)(N[C@H]1CCO[C@@H](C2c3ccccc3CCc3ccccc32)C1)c1ccc(OC(F)(F)F)cc1	D425	immunoblot	–	concentration not given, 24 h	–	total PARP level	decreased
CN1CCCNC(=O)c2cccc(c2)C(=O)NCCCN(C)CCCNc2cccc3c2C(=O)c2cccc(c2C3=O)NCCC1	SAS	RNA-Seq, item: HDAC7 mRNA	–	1 µM, 6 h	reference: untreated cells	log2 fold change	-1.12
Cc1ncsc1-c1ccc(C(C)NC(=O)C2CC(O)CN2C(=O)C(NC(=O)CCCCCCCCCCN2CCCC(Nc3ncc(Cl)c(Nc4ccccc4S(=O)(=O)C(C)C)n3)C2)C(C)(C)C)cc1 (stereo not drawn)	22Rv1	RNA-seq, item: ZSCAN30 mRNA	–	concentration not given	reference: DMSO	log2 fold change	-1.82
CCN(CC)CC(=O)Nc1cccc(-n2cc(-c3ccc4ccc(-c5cn(-c6cccc(NC(=O)CN(CC)CC)c6)nn5)cc4c3)nn2)c1	RCC4	PCR angiogenesis array, item: KDR	–	5 x IC50, 6 h, normoxia	reference: untreated	fold regulation	1.18
CC(C)c1ccc(N(C)c2ccc3c(c2)OCC[C@H]3CNc2cnccc2C(=O)O)cc1	NCI-H1650	cell viability, CellTiter-Glo	–	7 days	–	IC50	≥ 10 µM
CC(=O)N[C@@H](CO)C(=O)N[C@@H](Cc1ccccc1)C(=O)N[C@@H](C)C(=O)N[C@@H](CC(=O)O)C(=O)COC(=O)c1c(C)cccc1C	THP-1 cells, LPS-primed	pyroptosis, LDH release	–	25 µM, LPS 1 µg/mL, 4 h, with: nigericin 5 µM, 2 h	–	cell lysis	90.1% and 86.5%
C=CC(=O)N1CCCC(n2c(=O)c3ncccc3n(Cc3ccc(Oc4ccccc4)cc3)c2=O)C1 (stereo not drawn)	OCI-LY19	annexin V/PI flow cytometry	–	500 nM, 72 h, Q1 quadrant	–	annexin V/PI cells	1.62%
CNS(=O)(=O)Nc1nccc(Cc2c(C)c3ccc(Oc4ncccc4F)cc3oc2=O)c1F	YKG-1	cell viability	–	7 days	–	IC50	> 1 µM
C=CCc1c(O)cc2c(c1O)C(=O)CC(c1ccc(O)cc1)O2 (stereo not drawn)	HeLa	cell growth or viability, MTT	–	3.125 µM, 48 h	–	inhibition	2.17%

A few entries again:
SMILES	tested on	assay	test system	conditions	how to read	endpoint	value
COC1CCN(C(=O)/C=C/c2nn(Cc3cccc(C(F)(F)F)c3)c3nc(N(C)C)ncc23)CC1	OE33	cell growth or viability, resazurin	–	5 days	–	EC50	> 30 µM
